# Results of several laboratories.
# Every numbered part comes from another study and shows a few of its results, in no order.

# Series 1
# Target: Sal-like protein 4, full length isoform A (SALL4, Homo sapiens, UniProt Q9UJQ4, residues 1-1053)
# Chain of UniProt Q9UJQ4 (whole entry, looked up): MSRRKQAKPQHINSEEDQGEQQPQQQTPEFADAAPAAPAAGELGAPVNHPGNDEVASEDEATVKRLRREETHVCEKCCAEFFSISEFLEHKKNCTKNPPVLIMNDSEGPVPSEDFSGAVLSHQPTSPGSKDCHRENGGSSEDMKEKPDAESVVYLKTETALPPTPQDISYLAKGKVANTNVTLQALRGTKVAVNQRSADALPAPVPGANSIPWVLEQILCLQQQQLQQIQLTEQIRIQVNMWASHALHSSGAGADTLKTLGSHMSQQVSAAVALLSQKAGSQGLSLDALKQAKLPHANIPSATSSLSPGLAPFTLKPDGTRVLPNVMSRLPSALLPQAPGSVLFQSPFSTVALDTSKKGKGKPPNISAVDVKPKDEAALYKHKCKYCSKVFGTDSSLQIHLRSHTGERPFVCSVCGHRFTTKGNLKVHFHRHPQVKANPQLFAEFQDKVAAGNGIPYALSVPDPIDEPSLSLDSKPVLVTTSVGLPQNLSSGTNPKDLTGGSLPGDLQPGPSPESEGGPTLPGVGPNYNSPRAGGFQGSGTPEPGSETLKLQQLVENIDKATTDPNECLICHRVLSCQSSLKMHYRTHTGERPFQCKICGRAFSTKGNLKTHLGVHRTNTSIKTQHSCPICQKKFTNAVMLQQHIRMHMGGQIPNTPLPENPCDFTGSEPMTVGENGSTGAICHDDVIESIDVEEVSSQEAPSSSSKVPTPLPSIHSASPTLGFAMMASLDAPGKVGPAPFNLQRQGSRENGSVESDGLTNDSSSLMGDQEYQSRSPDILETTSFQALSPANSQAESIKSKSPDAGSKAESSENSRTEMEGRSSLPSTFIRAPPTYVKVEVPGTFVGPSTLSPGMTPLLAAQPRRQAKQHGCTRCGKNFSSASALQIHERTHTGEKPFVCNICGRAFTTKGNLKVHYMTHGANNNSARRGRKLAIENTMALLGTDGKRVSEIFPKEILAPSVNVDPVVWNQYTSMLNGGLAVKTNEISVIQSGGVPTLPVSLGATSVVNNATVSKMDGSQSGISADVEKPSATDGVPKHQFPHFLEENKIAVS
# Method: universal PBM
# Molecule type: double-stranded DNA, one strand shown
# Matrix: in vitro
# Concentration: 600 nM
# Setting: 8-mer, flanks averaged, mean of replicates
# Reading: higher = stronger binding
Strand,E-score
CGGATGGA,0.0521
TGCCATAA,0.218
CTTGACGC,-0.174
ATATGGAC,0.175
AAATCAAC,0.127

# Series 2
# Target: Prothrombin, mature alpha-thrombin (F2, Homo sapiens, UniProt P00734)
# Method: aptamer microarray, sandwich
# Molecule type: DNA with 2'F-ANA
# Matrix: in vitro
# Concentration: 200 nM
# Setting: whole 15-mer aptamer, many near background
# With: Cy3 exosite-II aptamer, 400 nM
# Reading: higher = stronger binding
Strand,mean fluorescence intensity [a.u.]
GGTTGGTGTGGTTGG (2'F-ANA at 1 2 3 4 5 7 9 10 11 12 13 14),52.7
GGTTGGTGTGGTTGG (2'F-ANA at 1 5 8 9 10 11 13),48.6
GGTTGGTGTGGTTGG (2'F-ANA at 1 4 9 10 11 15),50.4
GGTTGGTGTGGTTGG (2'F-ANA at 1 3 6 8 9 10 11 12),127

# Series 3
# Target: Interferon regulatory factor 3, full length, phosphomimetic (IRF3, Homo sapiens, UniProt Q14653, residues 1-427, S386D/S396D/S398D/S402D/T404D/S405D)
# Method: protein-binding microarray
# Molecule type: double-stranded DNA, one strand shown
# Matrix: in vitro
# Concentration: 2540 nM top
# Setting: 60-bp whole probe
# With: salmon DNA 0.4 mg/ml
# Baseline: random background probes
# Reading: higher = stronger binding
# Shared flanks, not repeated: GCCTAGCAC … GTCTTGATTCGCTTGACGCTGCTG
# Residues (chain): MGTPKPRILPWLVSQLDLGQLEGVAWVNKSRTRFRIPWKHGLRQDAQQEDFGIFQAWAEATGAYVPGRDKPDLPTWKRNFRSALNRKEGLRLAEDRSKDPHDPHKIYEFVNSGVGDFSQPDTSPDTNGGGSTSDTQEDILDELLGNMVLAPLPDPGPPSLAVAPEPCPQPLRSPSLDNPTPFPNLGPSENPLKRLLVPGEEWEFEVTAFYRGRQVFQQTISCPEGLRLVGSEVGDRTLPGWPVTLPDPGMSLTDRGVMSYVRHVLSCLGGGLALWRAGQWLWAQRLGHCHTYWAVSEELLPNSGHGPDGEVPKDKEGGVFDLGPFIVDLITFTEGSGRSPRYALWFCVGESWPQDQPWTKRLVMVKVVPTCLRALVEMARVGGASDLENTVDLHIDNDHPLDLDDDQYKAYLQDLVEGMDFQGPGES
Strand,fitted relative affinity
TCATGTTTTGTTTTTCAACTGTGCTAG,2.62 z-score
TTAGGTATCGGTTTCGGATAGTGCTAG,7.91 z-score
TTAGATATCAGACTGGATTCGTGCTAG,0.139 z-score
GACGGACTGGACTTTCCGGACGTGCTA,0.442 z-score
TTAGGTATCCTTATCCATTAGTGCTAG,5.61 z-score
GACGGTCTCCTTCCCCTGACGTGCTAG,1.35 z-score

# Further values, each from its own experiment
Molecule,target,test,test system,setting,how to read,endpoint,result
"PhoQ, residues 284 288 289 292 302 303 TTCLQL","PhoP, residues 12 14 15 18 19 YHFSH (Escherichia coli, UniProt P23836)","Sort-seq, item: YFP reporter",E. coli,"PhoQ-PhoP variant library, with: 10 µM Mg2+","baseline: high Mg2+ state, higher = stronger signaling",fold induction,4.32

# A few entries again (series 2):
Strand,mean fluorescence intensity [a.u.]
GGTTGGTGTGGTTGG (2'F-ANA at 1 2 3 4 5 7 9 10 11 12 13 14),52.7
GGTTGGTGTGGTTGG (2'F-ANA at 1 5 8 9 10 11 13),48.6
GGTTGGTGTGGTTGG (2'F-ANA at 1 4 9 10 11 15),50.4
